Assay results of several laboratories.
Numbered parts are unrelated; each lists some results of a single study.

Series 1 — method: RNA Bind-n-Seq; molecule type: RNA; sample: in vitro; concentration: 1 µM; setting: whole 134-nt RNA, ends assumed; added: 150 mM KCl; relative to: input library; reading: higher = stronger binding; endpoint: log2 enrichment
Target: Ras GTPase-activating protein-binding protein 1, RRM domain (G3BP1, Homo sapiens, UniProt Q13283)
Chain of UniProt Q13283 (whole entry, looked up): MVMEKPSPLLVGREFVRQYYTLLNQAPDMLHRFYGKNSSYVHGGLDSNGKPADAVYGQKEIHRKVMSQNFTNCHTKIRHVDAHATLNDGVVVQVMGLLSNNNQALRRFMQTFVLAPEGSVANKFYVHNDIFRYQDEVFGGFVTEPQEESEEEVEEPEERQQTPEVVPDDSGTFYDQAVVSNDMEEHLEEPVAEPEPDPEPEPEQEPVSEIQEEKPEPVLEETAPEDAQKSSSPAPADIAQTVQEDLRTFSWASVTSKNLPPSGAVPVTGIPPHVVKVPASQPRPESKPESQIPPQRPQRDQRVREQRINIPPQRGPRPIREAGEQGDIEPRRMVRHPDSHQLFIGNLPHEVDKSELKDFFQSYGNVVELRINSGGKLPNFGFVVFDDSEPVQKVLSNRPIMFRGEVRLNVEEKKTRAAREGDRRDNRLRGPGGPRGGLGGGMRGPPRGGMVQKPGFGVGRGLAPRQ
Constant ends, left off below: GGGAGUUCUACAGUCCGACGAUC … UGGAAUUCUCGGGUGUCAAGG
Oligonucleotide = UCCUGUGCUACACAUCGUAUGUACCGAAUCGGGGUUUUUUGGUUUUUUGGUUUUUUGGGAAAGUAUUAUGUUACGCCGUUCGGAUCUGCA; result = -0.178
Oligonucleotide = GCAGGAAGUAAAAACAAAUGGAAAUGCUUCGGAUAGUGGCAGGGGUGGGGGUUGCUAAGGAAAGGGUGGGAUGGGAGUGGGAAAAGAGUU; result = 1.15
Oligonucleotide = ACCAUGCAGGUGGGCAUCUUUGGGAAGUGGGGCAAGGGGGGGAUAGGGAGGGGGGUAAUACUUUGGGAACAGGUGGUCCCAGGUCGUUUC; result = 1.01
Oligonucleotide = CCUCAAGUCCUGUGCUACACAUCGUAUGUACCGAAUCGGGGAGGGGAGGAGGGAAAGUAUUAUGUUACGCCGUUCGGAUCUGCACUUCCA; result = -0.0241
Oligonucleotide = CCUCAAGUCCUGUGCUACACAUCGUAUGUACCGAAUCGGGGCCGGCCGGCCGGAAAGUAUUAUGUUACGCCGUUCGGAUCUGCACUUCCA; result = -0.479
Oligonucleotide = CACAGACAACACGCAGCCACACAGACACAGAGGGAAGGGGUUGGGAUGGGGACAGGGUGCACAGCAGGGCGGGGUAGGACCCCAGCCCCU; result = -0.0974
Oligonucleotide = CCUGUGCUACACAUCGUAUGUACCGAAUCGGCCCCCCCGGGCCCCCCCGGCCCCCCCGGGAAAGUAUUAUGUUACGCCGUUCGGAUCUGC; result = -0.499
Oligonucleotide = UCCUGUGCUACACAUCGUAUGUACCGAAUCGGGGUUUUUUGGGUUUUUUGGGUUUUUUGGAAAGUAUUAUGUUACGCCGUUCGGAUCUGC; result = -0.153

Series 2 — cell line: HEK-293T; effect on: pseudovirus infection; method: FDA-approved drug library screen; organism: VSV pseudotyped with SARS-CoV-2 spike; concentration: 10 µM; time: 16 h; relative to: vehicle-treated; endpoint: GFP-positive cells
Compound = CCC(=O)O[C@]1(C(=O)SCF)[C@H](C)C[C@H]2[C@@H]3C[C@H](F)C4=CC(=O)C=C[C@]4(C)[C@@]3(F)[C@@H](O)C[C@@]21C; result = 108%
Compound = Cc1ccc(Sc2ccccc2N2CCNCC2)c(C)c1; result = 47.2%
Compound = CCC1(c2ccccc2)C(=O)NCNC1=O; result = 105%

Series 3 — effect on: enzyme activity; mode: inhibitor; concentration: 20 µM; endpoint: inhibition
Target: Replicase polyprotein 1ab, polymerase (rep, Severe acute respiratory syndrome coronavirus 2, UniProt P0DTD1)
SMILES = S=C=Nc1cccc(NC(=S)NCCCCNC(=S)Nc2cccc(N=C=S)c2)c1; result = -7.55%
SMILES = CCOc1cc(C(C)(C)C)ccc1C1=N[C@@](C)(c2ccc(Cl)cc2)[C@@](C)(c2ccc(Cl)cc2)N1C(=O)N1CCN(CCCS(C)(=O)=O)CC1; result = -0.78%
SMILES = O=C1[C@H]2CCCC[C@H]2C(=O)N1CCCCN1CCN(c2nsc3ccccc23)CC1; result = 4.7%
SMILES = Oc1ccc2ccccc2c1Cc1c(O)ccc2ccccc12; result = -0.66%
SMILES = O=C(O)c1cccnc1C(=O)O; result = -5.57%
SMILES = Nc1ccc2ncnc(NCCc3ccc(Oc4ccccc4)cc3)c2c1; result = -5.77%
SMILES = CC(C)NCC(O)c1ccccc1Cl (centres unmarked); result = -0.2%
SMILES = CC[C@@H](Cc1c(I)cc(I)c(N)c1I)C(=O)O; result = 4.63%
SMILES = S=C(NC1CCCCC1)N1CCC(c2cnc[nH]2)CC1; result = -2.84%
SMILES = CNCc1ccc(-c2cc(-c3nc(-c4ccc(S(=O)(=O)C(C)C)cc4)cnc3N)on2)cc1; result = 13.5%
SMILES = COc1cc(C(=O)N2CCOCC2)cc(OC)c1OC; result = -0.48%
SMILES = CC[C@@H]1C(=O)OC[C@@H]1Cc1cncn1C; result = 17.6%
SMILES = COc1cc2c(cc1OC)CN(C(=O)/C=C/c1c(-c3ccccc3)n(C)c3ncccc13)CC2; result = 9.74%
SMILES = CCOc1ccc(Cc2cc([C@@H]3O[C@H](SC)[C@@H](O)[C@H](O)[C@H]3O)ccc2Cl)cc1; result = 4.05%
SMILES = Cc1cccc(C)c1NC(=O)CC12CCCN1CCC2; result = -3.14%
SMILES = c1ccc(C(O[C@@H]2CCCN(CCc3ccc4c(c3)OCO4)C2)c2ccccc2)cc1; result = -6.67%
SMILES = C[C@H]1CN(C[C@H](Cc2ccccc2)C(=O)NCC(=O)O)CC[C@@]1(C)c1cccc(O)c1; result = -1.69%
SMILES = N=C(N)NCCN1CCCCCCC1; result = 14.7%
SMILES = COc1cc2c(Nc3ccc(Cl)c(Cl)c3F)ncnc2cc1OC[C@@H]1C[C@@H]2CN(C)C[C@@H]2C1; result = 7.23%
SMILES = NCC1CC(=O)N(Cc2ccccc2)C1 (centres unmarked); result = 0.31%
SMILES = Cn1c(COc2ccc(CC3SC(=O)NC3=O)cc2)nc2ccccc2c1=O (centres unmarked); result = -8.04%
SMILES = C1CCC(NC2CCCCC2)CC1; result = 0.14%
SMILES = CCCC(=O)C1CCN(c2ncnc3c2CN(C(=O)c2ccc(-c4ccccc4)cc2)CC3)CC1; result = 2.95%
SMILES = CC(C)(C)NCC(O)COc1cc(Cl)ccc1Cl (centres unmarked); result = 3.7%
SMILES = COc1cc([C@@H]2c3cc4c(cc3[C@@H](O[C@@H]3O[C@@H]5CO[C@@H](C)O[C@H]5[C@H](O)[C@H]3O)[C@H]3COC(=O)[C@H]23)OCO4)cc(OC)c1OP(=O)(O)O; result = 1.17%

Series 4 — effect on: enzyme activity; mode: inhibitor; endpoint: IC50
Target: Replicase polyprotein 1ab, main protease (rep, Severe acute respiratory syndrome coronavirus 2, UniProt P0DTD1)
Structure (SMILES) = CC1(C)C(/C=C/C=C/C=C/C=C2\N(CCCCS(=O)(=O)O)c3ccc4ccccc4c3C2(C)C)=[N+](CCCCS(=O)(=O)[O-])c2ccc3ccccc3c21; result = > 20 µM
Structure (SMILES) = O=C(c1ccc(Cl)cc1)c1cc([N+](=O)[O-])ccc1N1CCOCC1; result = > 20 µM
Structure (SMILES) = Cc1ccc(S(=O)(=O)c2ccc([N+](=O)[O-])o2)cc1; result = 14.6 µM
Structure (SMILES) = O=C(O)C(=O)CBr; result = 11.5 µM

Series 5 — method: RNAcompete; molecule type: RNA; sample: in vitro; concentration: 20 nM; setting: 7-mer, probes averaged, single round; relative to: mean of 7-mers; reading: higher = stronger binding; endpoint: 7-mer Z-score
Target: PABPC1L2, full length, GST fusion (mouse, UniProt A0ABA7IW68)
Target sequence (chain): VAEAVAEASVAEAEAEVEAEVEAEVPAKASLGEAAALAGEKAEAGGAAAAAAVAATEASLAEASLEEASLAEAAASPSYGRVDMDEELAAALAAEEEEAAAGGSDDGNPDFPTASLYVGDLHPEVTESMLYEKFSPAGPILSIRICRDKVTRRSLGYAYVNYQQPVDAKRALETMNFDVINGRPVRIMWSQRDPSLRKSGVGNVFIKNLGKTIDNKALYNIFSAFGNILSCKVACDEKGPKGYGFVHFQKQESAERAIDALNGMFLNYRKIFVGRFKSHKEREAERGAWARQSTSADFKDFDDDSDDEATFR
Oligonucleotide = CACAACC; result = -0.161
Oligonucleotide = CUUUGUC; result = -0.402
Oligonucleotide = AAUCUCG; result = -0.0609
Oligonucleotide = AUGAGCC; result = -0.195
Oligonucleotide = CUGAGUU; result = -0.293
Oligonucleotide = CAAAAAA; result = 29.5
Oligonucleotide = CUCGCAC; result = -0.344
Oligonucleotide = CGAUUUA; result = 0.209

Series 6 — method: protein binding microarray; molecule type: double-stranded DNA, one strand shown; sample: in vitro; concentration: not given; relative to: not given; reading: higher = stronger binding; endpoint: E-score
Target: Histone acetyltransferase KAT6A, winged helix 2, GST fusion (KAT6A, Homo sapiens, UniProt Q92794, residues 85-181)
Setting: 8-mer, flanks averaged, mean of 2 arrays, mostly near background
Target sequence (chain): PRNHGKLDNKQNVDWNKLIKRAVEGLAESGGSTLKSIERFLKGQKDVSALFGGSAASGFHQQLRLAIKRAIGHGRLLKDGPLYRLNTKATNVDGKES
Oligonucleotide = ACCTCGCT; result = 0.113
Oligonucleotide = CTCACCCA; result = 0.00473
Oligonucleotide = CGTACAGC; result = -0.116
Oligonucleotide = ATCGATTA; result = -0.00598
Oligonucleotide = ATCTACTC; result = -0.0509
Oligonucleotide = AATAACAG; result = 0.00626
Oligonucleotide = CGTTTAGC; result = 0.142
Oligonucleotide = GCCGTTCC; result = 0.00838

For quick reference, copied from above (series 6):
Oligonucleotide = AATAACAG; result = 0.00626
Oligonucleotide = CGTTTAGC; result = 0.142
Oligonucleotide = ATCGATTA; result = -0.00598
Oligonucleotide = CGTACAGC; result = -0.116
Oligonucleotide = ATCTACTC; result = -0.0509
Oligonucleotide = CTCACCCA; result = 0.00473
Oligonucleotide = ACCTCGCT; result = 0.113
